Assay results collected from several papers.
Each numbered part is a random draw from the data of one study; scales do not carry over between parts. Changes are numbered by the printed parent chain.

Study 1
Target: ABI1, truncated, D143A, DHFR fusion (Arabidopsis thaliana)
Technique: DHFR PCA, deep sequencing
Medium: yeast
Setting: methotrexate growth selection, single substitutions
With: (+)-ABA 0.39 µM
Reference: wild-type fitted maximum
Reading: higher = stronger binding
Quantity: relative binding score
Starting sequence: PYL1, truncated, DHFR fusion (Arabidopsis thaliana); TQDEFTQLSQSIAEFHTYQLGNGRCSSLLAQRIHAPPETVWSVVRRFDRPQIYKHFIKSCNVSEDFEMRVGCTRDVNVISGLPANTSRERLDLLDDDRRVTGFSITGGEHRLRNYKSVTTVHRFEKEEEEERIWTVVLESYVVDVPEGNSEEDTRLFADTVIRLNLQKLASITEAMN
R74W: -3.17%
H110K: 20%
P146E: -2.58%
K54M: -11%
Q51A: -3.89%
A13W: 6.04%
V142D: 8.04%
D92K: -0.592%
T154K: 3.73%
D3S: 34.8%
L112T: -9.26%
E14L: 4.13%
W134L: 30.9%
S42M: 12%

Study 2
Target: CCND2, cyclin fold, Cln2 fusion (human)
Technique: yeast growth competition, sequencing
Medium: yeast
Setting: weak parent motif
Reference: not given
Reading: higher = stronger binding
Quantity: normalised enrichment score
Starting sequence: CDKN1B docking peptide (human); PSACRNLFGPVDH
PSACRNLFGPFDH [V11F]: 0.207
RSACRNLFGPVDH [P1R]: 0.291
PSICRNLFGPVDH [A3I]: 0.0662
PSACRNLFGQVDH [P10Q]: 0.139
PLACRNLFGPVDH [S2L]: 0.202
PSACRNLTGPVDH [F8T]: 0.154
PSACRNLFGPVQH [D12Q]: 0.416
PSHCRNLFGPVDH [A3H]: 0.215
PSACRNLFGGVDH [P10G]: 0.287
PSACNNLFGPVDH [R5N]: -0.0579
PSAVRNLFGPVDH [C4V]: 0.0566
PSKCRNLFGPVDH [A3K]: -0.234
VSACRNLFGPVDH [P1V]: 0.0736
PSAYRNLFGPVDH [C4Y]: 0.0855
PCACRNLFGPVDH [S2C]: -0.0111
PSACRNLFTPVDH [G9T]: 0.22
PSACRNLFGPADH [V11A]: -0.033
PSACRNLFYPVDH [G9Y]: 0.532
PSACRNSFGPVDH [L7S]: 0.114
PSACRNYFGPVDH [L7Y]: -0.185
PSACRCLFGPVDH [N6C]: 0.247
PSECRNLFGPVDH [A3E]: -0.0264
PSACANAFGPVDH [R5A L7A]: -0.0311
PSACRNLFGPVRH [D12R]: 0.215
PSACRNLFGPEDH [V11E]: 0.281

Study 3
Target: Sal-like protein 4, full length isoform A (SALL4, Homo sapiens, UniProt Q9UJQ4, residues 1-1053)
Sequence of UniProt Q9UJQ4 (whole entry, looked up): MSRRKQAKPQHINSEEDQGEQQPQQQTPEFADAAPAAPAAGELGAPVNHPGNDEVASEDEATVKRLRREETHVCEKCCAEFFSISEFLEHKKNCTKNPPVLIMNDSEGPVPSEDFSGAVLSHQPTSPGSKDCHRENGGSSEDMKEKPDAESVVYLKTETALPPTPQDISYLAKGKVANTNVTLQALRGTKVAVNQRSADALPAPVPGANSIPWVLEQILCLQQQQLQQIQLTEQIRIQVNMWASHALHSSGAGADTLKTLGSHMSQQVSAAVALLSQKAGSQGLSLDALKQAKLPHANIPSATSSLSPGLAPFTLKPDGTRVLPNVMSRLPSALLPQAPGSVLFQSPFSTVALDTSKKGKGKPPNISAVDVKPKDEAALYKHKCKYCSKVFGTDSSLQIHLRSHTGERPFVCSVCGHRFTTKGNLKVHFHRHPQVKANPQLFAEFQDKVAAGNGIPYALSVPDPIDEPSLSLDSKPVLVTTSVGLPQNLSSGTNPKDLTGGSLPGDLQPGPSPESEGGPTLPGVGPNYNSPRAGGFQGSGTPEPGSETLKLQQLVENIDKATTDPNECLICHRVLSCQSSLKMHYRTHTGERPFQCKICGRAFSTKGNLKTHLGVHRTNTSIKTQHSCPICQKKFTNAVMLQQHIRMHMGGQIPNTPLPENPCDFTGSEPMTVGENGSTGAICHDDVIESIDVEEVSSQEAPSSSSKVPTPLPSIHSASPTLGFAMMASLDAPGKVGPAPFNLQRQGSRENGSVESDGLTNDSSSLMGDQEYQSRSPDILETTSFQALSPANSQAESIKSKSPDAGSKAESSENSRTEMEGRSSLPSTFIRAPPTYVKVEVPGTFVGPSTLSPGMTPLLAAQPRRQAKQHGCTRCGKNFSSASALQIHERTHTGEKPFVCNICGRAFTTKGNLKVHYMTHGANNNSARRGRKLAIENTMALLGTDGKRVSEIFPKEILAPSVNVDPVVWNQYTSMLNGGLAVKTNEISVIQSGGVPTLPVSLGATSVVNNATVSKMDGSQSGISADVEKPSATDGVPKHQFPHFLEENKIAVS
Technique: universal PBM
Molecule type: double-stranded DNA, one strand shown
Medium: in vitro
Concentration: 600 nM
Setting: 8-mer, flanks averaged, mean of replicates
Reading: higher = stronger binding
Quantity: E-score
CCGACGTC: -0.295
CCGAAACG: -0.192
CATTACAG: 0.166
CGCCTGAC: -0.183
TACTCACA: 0.122
GATTTCGC: 0.0881
CAACCATG: -0.00317
ACAAGCGG: -0.0923
ACTCAACT: 0.0512
AGCATTAC: -0.0127
ACTTCGAG: 0.0305
CAGGGAGG: -0.294
AGCTCCAT: -0.157
AGTCATTG: 0.0264
AGTTCCAG: -0.188
CCTGCCTA: -0.14
CTAGACAG: -0.125
CGTATGTC: 0.0218
AAACTGAG: -0.084
CAAAGAAG: 0.0441
CGTTCAAA: 0.0255
AGCCTGGA: -0.265
CAGATGGC: -0.157
AGCGAACC: -0.101
GCGAACCC: -0.286

Study 4
Target: JUN, bZIP domain (human)
Technique: DHFR protein complementation
Medium: yeast
Setting: single substitutions, most at no-binding floor
Reference: wild-type JUN-FOS pair
Reading: higher = stronger binding
Quantity: binding fitness
Starting sequence: JUN, bZIP domain (human); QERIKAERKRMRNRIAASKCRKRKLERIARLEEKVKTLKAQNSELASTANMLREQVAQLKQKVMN; partner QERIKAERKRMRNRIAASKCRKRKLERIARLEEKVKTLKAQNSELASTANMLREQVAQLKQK
E32F: -1.16 natural log
T37W: -0.219 natural log
S47G: -0.306 natural log
Q41M: -0.306 natural log
V56F: -0.679 natural log
E33M: -0.316 natural log
K34Y: -0.181 natural log
E54C: -0.711 natural log
L38Y: -1.17 natural log
Q41R: -0.337 natural log
K36C: -0.418 natural log
Q55T: -0.455 natural log
V35L: -0.413 natural log
N42M: -1.2 natural log
E32W: -1.12 natural log
Q58C: -0.248 natural log
N42L: -1.18 natural log
A57Y: -0.45 natural log

Study 5
Target: Ras GTPase-activating protein-binding protein 1, C-terminal RGG region (G3BP1, Homo sapiens, UniProt Q13283)
Sequence of UniProt Q13283 (whole entry, looked up): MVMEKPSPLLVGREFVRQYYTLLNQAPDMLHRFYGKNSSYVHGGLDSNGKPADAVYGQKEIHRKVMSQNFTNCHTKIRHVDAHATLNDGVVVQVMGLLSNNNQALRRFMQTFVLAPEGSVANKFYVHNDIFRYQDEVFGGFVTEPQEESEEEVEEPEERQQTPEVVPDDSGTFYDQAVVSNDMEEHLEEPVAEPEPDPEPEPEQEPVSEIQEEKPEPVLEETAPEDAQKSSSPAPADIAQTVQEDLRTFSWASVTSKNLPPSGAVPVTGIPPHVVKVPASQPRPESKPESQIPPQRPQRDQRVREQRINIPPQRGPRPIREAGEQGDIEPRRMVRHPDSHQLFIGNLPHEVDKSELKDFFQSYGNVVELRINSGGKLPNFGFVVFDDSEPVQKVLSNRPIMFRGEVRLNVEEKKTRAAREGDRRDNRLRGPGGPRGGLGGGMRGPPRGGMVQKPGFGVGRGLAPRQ
Technique: RNA Bind-n-Seq
Molecule type: RNA
Medium: in vitro
Concentration: 1 µM
Setting: whole 134-nt RNA, ends assumed
With: 150 mM KCl
Reference: input library
Reading: higher = stronger binding
Quantity: log2 enrichment
Constant ends, left off below: GGGAGUUCUACAGUCCGACGAUC … UGGAAUUCUCGGGUGUCAAGG
UGGGAGGUGGAUUUUGUUUAUUUUUUUAGCUCAUUUCCAGGGGUGGGAAUUUUUUUUUAAUAUGUGUCAUGAAUAAACUUGUUUUUGAAA: 3.03
ACCAUGCAGGUGGGCAUCUUUGGGAAGUGUGGCAAGGGGGGGAUAGGGAGGGGGGUAACACUUUGGGAACAGGUGGUCCCAGGUCGUUUC: -1.12
UCCUCAAGUCCUGUGCUACACAUCGUAUGUACCGAAUCGGGGCGGCGGCGGAAAGUAUUAUGUUACGCCGUUCGGAUCUGCACUUCCAGC: -1.02
UAACUUUAGAGUAGGAUCUGAUGGAUAUGGCAGUGGACGUGGAUUUGGGGAUGGCUAUAAUGGGUAUGGAGGAGGACCUGGAGGUGGCAA: -1.54
CCUCAAGUCCUGUGCUACACAUCGUAUGUACCGAAUCGGGGCGGCGGGCGGGGAAAGUAUUAUGUUACGCCGUUCGGAUCUGCACUUCCA: 0.489
GUCCUGUGCUACACAUCGUAUGUACCGAAUCGGGGUUUGGGGUUUUUGGGGUUUGGGGAAAGUAUUAUGUUACGCCGUUCGGAUCUGCAC: 2.43
UUGCCACUCUAAAUUCAGAAGAGGAGAGCGACCCUCCAACCUACAAGGAUGCCUUCCCUCCACUUCCUGAGAAAGCUGCUUGCCUGGAAA: -0.167

Study 6
Target: Histone acetyltransferase KAT6A, winged helix 2, GST fusion (KAT6A, Homo sapiens, UniProt Q92794, residues 85-181)
Technique: protein binding microarray
Molecule type: double-stranded DNA, one strand shown
Medium: in vitro
Concentration: not given
Setting: 8-mer, flanks averaged, mean of 2 arrays, mostly near background
Reference: not given
Reading: higher = stronger binding
Quantity: E-score
Residues (chain): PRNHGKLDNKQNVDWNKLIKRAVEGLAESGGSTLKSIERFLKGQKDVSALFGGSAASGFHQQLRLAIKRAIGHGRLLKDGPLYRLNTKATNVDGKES
ATAGTGTG: -0.104
AGCTCGGG: 0.165
AGGTAGTC: -0.0749
AGGTCTGG: -0.112
CCCTAGTC: -0.287
AAACAACG: -0.125
AGTGGCCG: 0.109
CTGCATTC: 0.0273
GACTGTGC: -0.262
GGCCTCAA: 0.205
CGACGAGC: 0.0501
CACACCAG: 0.0584
AACTTTCT: 0.042
CAGCGCAG: 0.216
ATTGAGGA: -0.0832
AAAACTAC: -0.0247
ACGGTTCC: -0.204
CCCCGTGA: 0.0268
ACAAATAA: -0.0864
CACAAAGC: 0.146
AAACCAAC: 0.139

Single results of other studies
PhoQ, residues 284 288 289 292 302 303 SSCCRF
fold induction (PhoP, residues 12 14 15 18 19 VHSCL (Escherichia coli, UniProt P23836); Sort-seq, measured: YFP reporter; E. coli; PhoQ-PhoP variant library, with: 10 µM Mg2+; reference: high Mg2+ state, higher = stronger signaling): 8.61

For quick reference, copied from above (study 3):
CGTATGTC: 0.0218
CCGACGTC: -0.295
TACTCACA: 0.122
CCTGCCTA: -0.14
ACTCAACT: 0.0512
CATTACAG: 0.166
AGCATTAC: -0.0127
CAGGGAGG: -0.294
